Experimental data from different studies.
Compare with care: the assays were run in different laboratories. Values joined by “and” are separate records of one study, mostly repeats; a detail may differ. No end group written: not given here.
B1: Vasp (Mus musculus, UniProt P70460); sequence looked up; chain MSETVICSSRATVMLYDDSNKRWLPAGTGPQAFSRVQIYHNPTANSFRVVGRKMQPDQQVVINCAIIRGVKYNQATPIFHQWRDARQVWGLNFGSKEDAIQFATGMANALEALEGGGPPPAPAPPAWSAQNGPSPEELEQQKRQPEHMERRVSNAGGPPAPPAGGPPPPPGPPPPPGPPPPPGLPSSGVSGAGHGAGAAPPPAPPLPTAQGPNSGGSGAPGLAAAIAGAKLRKVSKQEEASGGPLAPKAENSRSTGGGLMEEMNAMLARRRKATQVGEKPPKDESASEESEARLPAQSEPVRRPWEKNSTTLPRMKSSSSVTTSEAHPSTPCSSDDSDLERVKQELLEEVRKELQKMKEEIIEVFVQELRKRGSP
B2: CEP192 456-541 (Homo sapiens, UniProt Q8TEP8); chain ESIEKNKDKTDLPQSVVYQNEEGRWVTDLAYYTSFNSKQNLNVSLSDEMNEDFRSGSEAFDLIAQDEEEFNKEHQFIQEENIDAHN
B3: RGS1 284-459 (Arabidopsis thaliana, UniProt Q8H1F2); chain KEEFRPVDPNEPLDKLLLNKRFRHSFMEFADSCYAGETLHFFEEVYEHGKIPEDDSIRRIYMARHIMEKFIVAGAEMELNLSHKTRQEILTTQDLTHTDLFKNALNEVMQLIKMNLVRDYWSSIYFIKFKEEESCHEAMHKEGYSFSSPRLSSVQGSDDPFYQEHMSKSSRCSSPG
B4: Apoa5 (Mus musculus, UniProt Q8C7G5); sequence looked up; chain RKSLWDYFSQNSWSKGVMGQPQKLAQENLKGSFEQDLYNMNNYLEKLGPLRGPGKEPPLLAQDPEGIRKQLQQELGEVSSRLEPYMAAKHQQVGWNLEGLRQQLKPYTAELMEQVGLSVQELQEQLRVVGEDTKAQLLGGVDEALNLLQDMQSRVLHHTDRVKELFHPYAERLVTGIGHHVQELHRSVAPHAAASPARLSRCVQTLSHKLTRKAKDLHTSIQRNLDQLRDELSAFIRVSTDGAEDGDSLDPQALSEEVRQRLQAFRHDTYLQIAAFTQAIDQETEEIQHQLAPPPPSHSAFAPELGHSDSNKALSRLQSRLDDLWEDIAYGLQDQGHSHLSDPEGHSG
Sequence of UniProt O60656 (whole entry, looked up): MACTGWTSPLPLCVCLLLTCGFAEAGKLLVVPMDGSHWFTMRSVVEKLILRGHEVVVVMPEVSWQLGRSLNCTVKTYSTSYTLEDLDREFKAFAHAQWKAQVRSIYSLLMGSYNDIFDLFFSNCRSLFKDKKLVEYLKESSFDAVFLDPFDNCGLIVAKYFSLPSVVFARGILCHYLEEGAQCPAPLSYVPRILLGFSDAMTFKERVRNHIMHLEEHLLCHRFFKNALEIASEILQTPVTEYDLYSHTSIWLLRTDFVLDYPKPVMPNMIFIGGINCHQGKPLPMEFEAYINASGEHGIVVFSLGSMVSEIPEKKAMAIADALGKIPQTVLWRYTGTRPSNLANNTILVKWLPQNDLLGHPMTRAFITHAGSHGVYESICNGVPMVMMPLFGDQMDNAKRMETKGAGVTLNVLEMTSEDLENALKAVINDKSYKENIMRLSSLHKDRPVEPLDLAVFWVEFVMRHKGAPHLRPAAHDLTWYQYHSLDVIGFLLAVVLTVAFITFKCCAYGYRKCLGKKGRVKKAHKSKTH
Sequence of UniProt P50549 (whole entry, looked up): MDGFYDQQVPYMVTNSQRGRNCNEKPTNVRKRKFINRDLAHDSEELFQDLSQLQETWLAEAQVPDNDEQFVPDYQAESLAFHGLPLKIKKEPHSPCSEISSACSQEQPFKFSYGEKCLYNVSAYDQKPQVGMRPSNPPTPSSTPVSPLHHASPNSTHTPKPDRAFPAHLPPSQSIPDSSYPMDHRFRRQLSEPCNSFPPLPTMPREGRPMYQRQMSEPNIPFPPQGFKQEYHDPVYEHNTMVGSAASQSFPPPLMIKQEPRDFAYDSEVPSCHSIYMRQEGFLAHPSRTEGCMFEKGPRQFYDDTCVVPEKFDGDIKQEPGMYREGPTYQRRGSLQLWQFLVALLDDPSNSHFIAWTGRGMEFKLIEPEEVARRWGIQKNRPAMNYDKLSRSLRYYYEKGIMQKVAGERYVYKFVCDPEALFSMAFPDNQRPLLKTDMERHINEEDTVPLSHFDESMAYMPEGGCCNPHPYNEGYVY
Sequence of UniProt P00429 (whole entry, looked up): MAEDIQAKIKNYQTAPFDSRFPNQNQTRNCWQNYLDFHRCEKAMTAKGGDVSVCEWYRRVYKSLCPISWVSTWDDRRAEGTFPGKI
Sequence of UniProt O14965 (whole entry, looked up): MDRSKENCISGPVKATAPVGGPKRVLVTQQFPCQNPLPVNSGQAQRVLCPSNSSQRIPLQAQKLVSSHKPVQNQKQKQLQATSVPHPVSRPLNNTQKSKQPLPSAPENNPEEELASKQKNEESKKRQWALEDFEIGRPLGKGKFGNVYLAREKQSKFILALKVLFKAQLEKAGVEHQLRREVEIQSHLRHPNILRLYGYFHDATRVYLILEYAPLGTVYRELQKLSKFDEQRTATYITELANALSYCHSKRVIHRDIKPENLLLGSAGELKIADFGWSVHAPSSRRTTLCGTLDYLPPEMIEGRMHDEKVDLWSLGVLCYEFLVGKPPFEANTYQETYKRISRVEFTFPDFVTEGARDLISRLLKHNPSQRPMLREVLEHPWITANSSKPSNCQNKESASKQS
Sequence of UniProt Q9Y6W5 (whole entry, unmodified, looked up): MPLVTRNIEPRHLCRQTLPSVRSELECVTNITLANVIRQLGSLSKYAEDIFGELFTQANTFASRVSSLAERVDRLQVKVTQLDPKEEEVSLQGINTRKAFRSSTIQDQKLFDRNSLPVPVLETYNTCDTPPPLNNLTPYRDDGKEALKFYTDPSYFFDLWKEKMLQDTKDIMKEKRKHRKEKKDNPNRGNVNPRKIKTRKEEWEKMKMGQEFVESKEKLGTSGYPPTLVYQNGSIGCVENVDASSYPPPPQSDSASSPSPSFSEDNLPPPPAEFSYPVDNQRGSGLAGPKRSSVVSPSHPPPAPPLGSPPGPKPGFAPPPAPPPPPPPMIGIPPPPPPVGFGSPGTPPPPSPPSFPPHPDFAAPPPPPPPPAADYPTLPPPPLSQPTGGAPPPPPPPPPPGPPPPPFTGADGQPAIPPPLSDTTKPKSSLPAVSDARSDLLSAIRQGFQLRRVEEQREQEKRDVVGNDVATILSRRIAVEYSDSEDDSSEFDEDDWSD
Sequence of UniProt P18064 (whole entry, looked up): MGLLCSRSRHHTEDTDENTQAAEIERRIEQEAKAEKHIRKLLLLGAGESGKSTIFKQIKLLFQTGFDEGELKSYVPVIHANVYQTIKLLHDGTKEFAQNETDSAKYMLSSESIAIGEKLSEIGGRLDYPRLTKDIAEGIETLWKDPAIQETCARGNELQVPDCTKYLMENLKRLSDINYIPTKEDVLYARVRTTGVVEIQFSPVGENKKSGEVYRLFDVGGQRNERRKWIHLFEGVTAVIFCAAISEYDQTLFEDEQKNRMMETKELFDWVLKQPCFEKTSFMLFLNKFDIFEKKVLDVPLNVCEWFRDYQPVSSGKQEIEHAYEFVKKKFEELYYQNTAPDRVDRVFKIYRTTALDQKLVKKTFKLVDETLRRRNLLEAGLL
Sequence of UniProt Q6PL18 (whole entry, unmodified, looked up): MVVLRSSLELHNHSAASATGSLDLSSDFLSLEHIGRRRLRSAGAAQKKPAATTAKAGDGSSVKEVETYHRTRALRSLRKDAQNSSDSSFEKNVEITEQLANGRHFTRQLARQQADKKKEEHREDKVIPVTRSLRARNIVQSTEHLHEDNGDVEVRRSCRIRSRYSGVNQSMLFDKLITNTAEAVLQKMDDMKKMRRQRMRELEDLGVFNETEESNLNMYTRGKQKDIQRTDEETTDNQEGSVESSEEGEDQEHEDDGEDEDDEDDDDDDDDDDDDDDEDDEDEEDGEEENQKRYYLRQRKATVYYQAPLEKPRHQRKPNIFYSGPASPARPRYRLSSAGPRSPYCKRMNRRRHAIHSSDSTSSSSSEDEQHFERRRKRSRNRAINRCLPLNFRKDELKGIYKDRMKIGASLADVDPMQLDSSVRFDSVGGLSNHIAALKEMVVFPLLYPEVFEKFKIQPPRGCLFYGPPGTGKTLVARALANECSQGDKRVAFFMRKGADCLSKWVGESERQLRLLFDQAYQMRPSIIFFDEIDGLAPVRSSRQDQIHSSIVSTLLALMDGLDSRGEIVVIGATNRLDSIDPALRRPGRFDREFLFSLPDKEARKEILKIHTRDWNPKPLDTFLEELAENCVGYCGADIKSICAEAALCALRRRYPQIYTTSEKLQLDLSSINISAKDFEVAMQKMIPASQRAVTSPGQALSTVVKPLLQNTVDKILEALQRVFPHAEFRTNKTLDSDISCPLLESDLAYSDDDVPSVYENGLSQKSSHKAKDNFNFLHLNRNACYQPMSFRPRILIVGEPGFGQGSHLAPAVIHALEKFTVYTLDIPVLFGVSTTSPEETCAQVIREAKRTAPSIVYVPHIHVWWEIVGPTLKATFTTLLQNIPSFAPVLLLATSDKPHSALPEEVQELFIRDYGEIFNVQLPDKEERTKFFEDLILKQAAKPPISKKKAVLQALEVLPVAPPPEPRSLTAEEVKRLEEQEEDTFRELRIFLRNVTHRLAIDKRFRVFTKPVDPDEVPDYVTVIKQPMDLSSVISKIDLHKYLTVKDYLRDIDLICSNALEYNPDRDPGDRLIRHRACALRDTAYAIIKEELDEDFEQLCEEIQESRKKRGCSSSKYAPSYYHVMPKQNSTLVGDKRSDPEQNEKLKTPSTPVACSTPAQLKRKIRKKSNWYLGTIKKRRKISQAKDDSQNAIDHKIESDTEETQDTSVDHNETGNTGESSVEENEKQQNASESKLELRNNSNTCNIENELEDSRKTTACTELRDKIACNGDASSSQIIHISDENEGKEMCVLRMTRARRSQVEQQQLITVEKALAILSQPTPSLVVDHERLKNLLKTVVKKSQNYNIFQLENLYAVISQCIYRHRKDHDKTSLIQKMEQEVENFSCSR

Substance | target or system | test | system | setting | how to read | measurement | result
B1 (Vasp) | WASF2 195-498 (Homo sapiens, UniProt Q9Y6W5) | actin comet motility | – | – | baseline: ΔEVH1-VASP or no addition, higher = more displacement | bead displacement | 1.7 fold
TPDYLMQLMNDKKLMSSLPNFSGIFNHLERLLDEAISRVRKDMYNDTLNGSTEK (Qki 14-67 C35S/E48A (Mus musculus, UniProt Q9QYS9)) | itself | CD thermal melting | – | 50 µM | – | melting temperature | 40 °C
B2 (CEP192 456-541) | AURKA kinase domain 123-403, phosphorylated (Homo sapiens, UniProt O14965) | ITC | – | – | – | binding | binds
COX6B1 (Bos taurus, UniProt P00429) | cytochrome c oxidase eight-subunit core (Bos taurus, UniProt P00396) | anion exchange chromatography, RP-HPLC, SDS-PAGE | – | 10 min, pH 7.2, room temperature, apparent, single transition fit | – | urea midpoint for subunit dissociation | 3.7 M
Semaglutide | GLP1R (Homo sapiens, UniProt P43220) | β-arrestin-2 recruitment, BRET | HEK293T | – | baseline: GLP-1, higher = stronger response | maximal response | 92 % GLP-1
AR (Homo sapiens, UniProt P10275) | ETV1 (Homo sapiens, UniProt P50549) | E74 luciferase reporter | RK13 | with: mibolerone 0.5 nmol/L | higher = more activation | reporter activity | 2.1 fold
KIF15 Coil-1 (Homo sapiens) | tubulin alpha/beta microtubules, E-hook removed (Bos taurus) | optical trap rupture assay | – | – | – | bond lifetime under load | 5.2 s
UGT1A9 (Homo sapiens, UniProt O60656) | O=c1cc(-c2ccc(O)c(O)c2)oc2cc(O)cc(O)c12 | steady-state kinetics | – | pH 7.4, 37 °C | – | Km | 0.33 µM and 0.17 µM
REC102 N-terminal MBP fusion (Saccharomyces cerevisiae, UniProt Q02721) | SPO11 (Saccharomyces cerevisiae, UniProt P23179) | SEC-MALS | – | – | – | molecule per partner | 1
B3 (RGS1 284-459) | GPA1 (Arabidopsis thaliana, UniProt P18064) | activator, single turnover GTPase assay | – | 250 nM | – | GTP hydrolysis rate constant | 0.346 min⁻¹
SGRGK(Ac)GGKGL (histone H4 residues 1-10; acetylated K5) | ATAD2 bromodomain 981-1108 C1101A, Cys1057-Cys1079 disulfide (Homo sapiens, UniProt Q6PL18) | ITC | peptide | pH 7.0, 5 °C, NaCl 150 mM, fully formed disulfide | – | molecule per partner | 1.26
TP53 R172H (Mus musculus) | Creb1 S133A (Mus musculus, UniProt Q01147-1) | proximity ligation | PDAC | – | baseline: WT CREB1, higher = greater loss of interaction | reduction of PLA signal | 73%
B4 (Apoa5) | ANGPTL3/ANGPTL8 | SPR | – | pH 7.4, 25 °C, NaCl 150 mM, with: CaCl2 4 mM | – | koff | 0.000832 s⁻¹
